Measured values of several laboratories.
A part holds a random share of what one study measured. Positions count from the first letter of the parent shown.

Study 1
Target: RNA binding protein fox-1 homolog 2, RRM domain, GST-SBP tag (RBFOX2, Homo sapiens, UniProt O43251-10, residues 100-194)
Method: RNA Bind-n-Seq
Form: RNA
Medium: in vitro
Tested at: 365 nM
Notes: natural RNA segment, single round, ends assumed
Relative to: no-protein control
Direction: higher = stronger binding
Residues (chain): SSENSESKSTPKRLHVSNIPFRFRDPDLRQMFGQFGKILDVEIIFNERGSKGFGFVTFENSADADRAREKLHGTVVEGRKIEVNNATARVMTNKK
`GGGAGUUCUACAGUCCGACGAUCCAAAGAGGUAUAAUGUGGGAUGCACCAAACGAGUGGGACUUUUUCACUCAGACCGAAGCAAGCUGCAGAAGGCAGGGACCACAACCCACAACCGCCGACGGGCCAGCAAGUGGAAUUCUCGGGUGCCAA` — result for “RBNS enrichment (R)”: 0.275.
`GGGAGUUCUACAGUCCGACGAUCCAUAAAUUUGGAGAAAAUAAUAUGACUAGAAAAAUUAGUGUUAUAUUGGGUGUGAGAAAAGACUGUGUCUUGAAAGAAUUAUCAAAGCUGAUACAGCACAUAUACAGAAUUGGAAUUCUCGGGUGCCAA`: “RBNS enrichment (R)” 1.29.
Under “RBNS enrichment (R)”, `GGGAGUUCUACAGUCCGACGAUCUGCUUUAAAAAAAAAAAUUUUUUUUUUUUAACGAAUUGCUGUUCUGUCCAGAGGUUUUUAAAACUGGUGCAUUCACAGCAAAAAGGGAUUCUGUAGCUUUAACUUGUAAAUGGAAUUCUCGGGUGCCAA` is recorded as 0.685.
`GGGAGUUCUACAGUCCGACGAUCAGGCCAGGGAAGAGUGAGCUUCACCCUCAUCCCACGCUGUCCUCCUCAACCCACCAUGCUCAUCAUUCUGUCUCAUCCAUCCAUCCAUCCAUCCAUUCAUCGCCAUGUGUUGGAAUUCUCGGGUGCCAA`: “RBNS enrichment (R)” 0.571.
For `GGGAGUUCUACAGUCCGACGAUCAGAAGAUGUCUGAGGUCCUCCUGAGCCCUGAAAUCUUGAUAAUCAGGAAUACCCAGGGUGGUGGGACUGACAUCAGGGGAGUGGCGUCUGCCCACCCCCCACCCUGUCCCUGGAAUUCUCGGGUGCCAA`, “RBNS enrichment (R)” read 0.184.
`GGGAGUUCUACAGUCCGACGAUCGUUCGAGACUAGCCUGGCCAACAUGGUGAAACCCCAUCUCUACUAAAAAUACAACAGCCAGGUGUGAUGGUGCACGCUCGUAAUCCCGGCUACUCAGGAGGCUGAGGCAGUGGAAUUCUCGGGUGCCAA` — result for “RBNS enrichment (R)”: 1.02.
Under “RBNS enrichment (R)”, `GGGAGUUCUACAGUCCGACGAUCGCUAAACAAUAAAUGUACCUGUCUCAGUCCGCUGGACUGAGUUGUUUUGAAGGUUCUCAUGGUGCACAGCAGUGUGUAUGUGGUGUACAACAGUGUGUAUGCAGCCGUGCUGGAAUUCUCGGGUGCCAA` is recorded as 0.477.
For `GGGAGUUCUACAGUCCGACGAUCUGAUGGGGUCUAAUUCUUAUUACUUCAACAAAUAUUGUUUUGACUUGGGGGGAGGGGCUAUAACCCUGCUAUUUUUCAUUGACUCUAUUGAACUCUUUAGGAUGAUGACUUGGAAUUCUCGGGUGCCAA`, “RBNS enrichment (R)” read 0.591.
Under “RBNS enrichment (R)”, `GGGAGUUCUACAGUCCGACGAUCUACAUUAGAAGGAACCUGGUUAGAGCUCGCUCCUCCUGUCUUUGUGUGGCAUUUGUGUUCCAUUACCGGCCCCUUUAAGUAACGGCCUUCACAGCACCUUCCCAGUGGGUUGGAAUUCUCGGGUGCCAA` is recorded as 0.959.

Study 2
Target: CCND2, cyclin fold, Cln2 fusion (human)
Method: yeast growth competition, sequencing
Medium: yeast
Notes: weak parent motif
Relative to: not given
Direction: higher = stronger binding
Starting sequence: RBL2 docking peptide (human); STTRRRLFVENDS; partner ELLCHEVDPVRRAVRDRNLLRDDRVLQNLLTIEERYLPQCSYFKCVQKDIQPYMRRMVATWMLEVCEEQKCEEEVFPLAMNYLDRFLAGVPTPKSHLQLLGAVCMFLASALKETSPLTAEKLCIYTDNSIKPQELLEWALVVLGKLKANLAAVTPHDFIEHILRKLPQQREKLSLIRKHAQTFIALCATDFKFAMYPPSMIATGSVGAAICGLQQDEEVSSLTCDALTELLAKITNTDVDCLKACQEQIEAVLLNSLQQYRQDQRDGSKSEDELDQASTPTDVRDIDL
`N11P` — result for “normalised enrichment score”: 0.26.
`L7W`: “normalised enrichment score” -0.144.
For `R4A`, “normalised enrichment score” read 0.555.
For `R4P`, “normalised enrichment score” read 0.107.
`R5K` — result for “normalised enrichment score”: 0.23.
For `T2V`, “normalised enrichment score” read 0.402.
Under “normalised enrichment score”, `R5L` is recorded as 0.113.
For `E10N`, “normalised enrichment score” read -0.114.
`N11F`: “normalised enrichment score” 0.401.
`R4E`: “normalised enrichment score” 0.136.
For `S1A`, “normalised enrichment score” read -0.105.
For `R6D`, “normalised enrichment score” read -0.0241.
`V9R`: “normalised enrichment score” 0.345.
Under “normalised enrichment score”, `E10M` is recorded as 0.47.
Under “normalised enrichment score”, `E10Y` is recorded as 0.201.
`S1M`: “normalised enrichment score” 0.33.
For `R4M`, “normalised enrichment score” read 0.0382.
`R5A L7A`: “normalised enrichment score” -0.0244.
`E10A` — result for “normalised enrichment score”: 0.064.
Under “normalised enrichment score”, `D12I` is recorded as 0.165.
`N11G`: “normalised enrichment score” 0.52.
`T2C`: “normalised enrichment score” -0.0736.
Under “normalised enrichment score”, `T2S` is recorded as 0.238.
`E10P`: “normalised enrichment score” 0.581.
`T2A`: “normalised enrichment score” 0.0351.

Study 3
Target: RING finger protein unkempt homolog, zinc fingers 1-6, GST-SBP tag (UNK, Homo sapiens, UniProt Q9C0B0, residues 30-357)
Method: RNA Bind-n-Seq
Form: RNA
Medium: in vitro
Tested at: not given
Notes: RNA with constant flanks, human and mouse sites, ends assumed
Relative to: input RNA pool
Direction: higher = stronger binding
Construct (chain): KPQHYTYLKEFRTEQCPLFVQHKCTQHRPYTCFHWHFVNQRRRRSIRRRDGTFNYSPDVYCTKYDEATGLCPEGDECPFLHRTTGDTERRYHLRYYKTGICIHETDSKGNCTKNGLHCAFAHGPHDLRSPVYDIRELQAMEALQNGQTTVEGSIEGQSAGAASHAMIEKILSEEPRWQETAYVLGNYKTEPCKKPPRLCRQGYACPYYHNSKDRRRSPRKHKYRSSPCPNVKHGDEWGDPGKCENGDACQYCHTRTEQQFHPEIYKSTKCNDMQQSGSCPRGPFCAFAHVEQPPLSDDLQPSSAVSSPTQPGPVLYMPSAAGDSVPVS
`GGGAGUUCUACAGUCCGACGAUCCCCAACCACUCUGUGGUGAAGCUGCAUGAUGCAGGUCAUGCCUGCUACCUCCACAAGCCAGAAGCCUUCCACCUCGCCCUUCUUGCCUUCCUUGACCAUUUGCCUUGAGUGGACUCACCUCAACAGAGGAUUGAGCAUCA` gave a bound/input enrichment of 0.321 ratio.
For `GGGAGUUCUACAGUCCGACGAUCUUUUUAUUCUCAGUACCUCAGGCUCCCCUGUGUACUUGGAGGGGCAGGGAGCCCUUUCCUCGGUUCUGGCCUCCAGACCAGGGUAAGGGCAGGCCCCUCCAACAGGUGCUCACAGCCACCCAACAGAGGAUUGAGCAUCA`, the bound/input enrichment was 0.0753 ratio.
For `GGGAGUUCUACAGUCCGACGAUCCUUGGCUGCUGUGUAGACUUACUUCCUCUGGUAAAGUCUUUACUUCAAAGCAGAUUUGAAGAAUAUGUAAUUGUUGGUUUAAACUGGCUUCAAGCAGUAAUAAAAAGGUGGUGGUCAGAACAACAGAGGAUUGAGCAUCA`, the bound/input enrichment was 0.337 ratio.
For `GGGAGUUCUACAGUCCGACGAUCAACAGUUUUCAGAAGUUCUUAAGGCAAGAGUGAAUUUCUGUGGAUUUUACUGGUCCCAGCUUUAGGUUCUUUACGACACUAACAGGACUGCAUAGAGGCUUUUUCAGCAUUACUGUAUUGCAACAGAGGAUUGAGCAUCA`, the bound/input enrichment was 0.368 ratio.
`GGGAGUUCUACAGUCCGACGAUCCUCAGCAAUGUGUCUUCCACGGGCAGCAUCGACAUGGUGGACUCACCACAGCUUGCCACACUAGCCGAUGAAGUGUCUGCUUCCUUGGCCAAGCAGGGUUUGUGAUCAGGCUCCCAGGGCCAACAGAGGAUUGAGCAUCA` has a bound/input enrichment of 0.0946 ratio.
`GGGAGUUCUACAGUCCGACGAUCAAGAGGCACAGUUGGUUCAAGGCAAGUGGUACCAUCAAGAAGUUCCGAGCUGGCCUCAGCAUCUUUUCACCCAUCCCCAAGUCUCCCAGUUUCCCUAUCAUACAGGACUCCAUGCUGAAACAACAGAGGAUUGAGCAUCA` gave a bound/input enrichment of 0.258 ratio.
The bound/input enrichment of `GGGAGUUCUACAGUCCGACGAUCAUUAUUUUUAAUGAAAUGCCAAUAUAAUUUUUUAAGAAAGCAGUAAAUUCUCAUCAUGAUCAUAGGCAGUUGAAAACUUUUUACUCAUUUUUUUCAUGUUUUACAUGAAAAUAAUGCUUUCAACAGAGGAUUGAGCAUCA` is reported as 0.253 ratio.
`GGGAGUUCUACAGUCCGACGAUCAAAUCAACGAGUACAAUUACUUUAGGAGAAAAGCUUGCUUCAGGGUCCUUAGAGAAAGUCACUGGGGCCUGCCAAGCUGCCACCUAAAGACAAGAGUGAGAGGGCUGAGUUCUUCCAGGUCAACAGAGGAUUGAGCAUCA` has a bound/input enrichment of 0.139 ratio.

Study 4
Target: Interferon regulatory factor 3, full length, phosphomimetic (IRF3, Homo sapiens, UniProt Q14653, residues 1-427, S386D/S396D/S398D/S402D/T404D/S405D)
UniProt Q14653, sequence (whole entry, unmodified, looked up): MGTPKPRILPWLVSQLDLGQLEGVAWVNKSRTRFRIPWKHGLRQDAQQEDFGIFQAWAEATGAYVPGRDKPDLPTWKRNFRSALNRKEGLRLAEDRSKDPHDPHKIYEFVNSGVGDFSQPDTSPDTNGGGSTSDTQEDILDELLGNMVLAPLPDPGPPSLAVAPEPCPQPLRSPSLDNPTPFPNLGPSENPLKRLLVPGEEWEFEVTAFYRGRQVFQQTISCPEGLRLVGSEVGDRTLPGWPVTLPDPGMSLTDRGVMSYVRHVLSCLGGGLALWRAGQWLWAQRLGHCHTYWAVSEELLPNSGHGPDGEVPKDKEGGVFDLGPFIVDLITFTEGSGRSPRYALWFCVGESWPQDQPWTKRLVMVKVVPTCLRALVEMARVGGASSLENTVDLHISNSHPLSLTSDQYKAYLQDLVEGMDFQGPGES
Method: protein-binding microarray
Form: double-stranded DNA, one strand shown
Medium: in vitro
Tested at: 2540 nM top
Notes: 60-bp whole probe
With: salmon DNA 0.4 mg/ml
Relative to: random background probes
Direction: higher = stronger binding
Constant ends, left off below: GCCTAGCAC … GTCTTGATTCGCTTGACGCTGCTG
`GACTGACTGGGGACTGGGGACGTGCTA`: “fitted relative affinity” -0.848 z-score.
Under “fitted relative affinity”, `TTAGAATTCAGTCTCGATTAGTGCTAG` is recorded as 1.01 z-score.
`TCAGGAGTCAACTCTCTAACTGTGCTA` — result for “fitted relative affinity”: -0.308 z-score.
Under “fitted relative affinity”, `TCACTTCTCCCTTTCAGTTTGTGCTAG` is recorded as 3.3 z-score.
`ATAGGTATCCTTCTCCTTTAGTGCTAG`: “fitted relative affinity” 7.06 z-score.
`TCAGTTATCACTTCCAAACTGTGCTAG`: “fitted relative affinity” 2.43 z-score.
`TCAAAAATGGCTTTGCAACTGTGCTAG` — result for “fitted relative affinity”: -0.632 z-score.
Under “fitted relative affinity”, `GAAACACTAATTTTTACTTTGTGCTAG` is recorded as 0.788 z-score.
For `TTAGGTATCCGTCTCGGTTAGTGCTAG`, “fitted relative affinity” read 4.84 z-score.
For `GACGAACTGGGGACAGGAGACGTGCTA`, “fitted relative affinity” read -0.332 z-score.
`TCAGGTTTCCTACTGCTTTAGTGCTAG` — result for “fitted relative affinity”: 4.69 z-score.
Under “fitted relative affinity”, `TTAGATATCGGGACCGGATTAGTGCTA` is recorded as 0.161 z-score.
For `GACGAATTGAGTCTCGAGACGTGCTAG`, “fitted relative affinity” read -0.17 z-score.
Under “fitted relative affinity”, `TTAGAAGTGAGTCTCGATTAGTGCTAG` is recorded as -0.588 z-score.
Under “fitted relative affinity”, `TTAGATATCGGGACTGGCTTAGTGCTA` is recorded as -0.337 z-score.
`TTAGCACTGGACTATCGGTTAGTGCTA` — result for “fitted relative affinity”: -0.557 z-score.
`GGTGTTTTACAGGTTCTCTTTGTGCTA` — result for “fitted relative affinity”: 0.0917 z-score.
`TTAGATTTCAGGTCCGATTAGTGCTAG`: “fitted relative affinity” 1.88 z-score.
`ACGAGTTTCCATTTTCTGAAGTGCTAG` — result for “fitted relative affinity”: 8.75 z-score.
`TCAACTCTCTAATTTTGACTGTGCTAG`: “fitted relative affinity” 0.234 z-score.
Under “fitted relative affinity”, `GACCGACTGGGTCTCGGGACGTGCTAG` is recorded as -0.257 z-score.
`AATGATTGGTTGAACATGAAGTGCTAG`: “fitted relative affinity” -0.187 z-score.
For `TCATCTTATCCTATCAGACTGTGCTAG`, “fitted relative affinity” read 1.95 z-score.
`GAGGGACTGGACTTTCGGGACGTGCTA`: “fitted relative affinity” -0.359 z-score.
`TTAGGTTTCGTTTTCCTTTAGTGCTAG`: “fitted relative affinity” 9.74 z-score.
